Measurements from different studies.
Parts stem from different laboratories: compare values within a part only. Positions count from the first letter of the parent shown.

Set 1
Target: POU domain, class 5, transcription factor 1, POU domain (Pou5f1, Mus musculus, UniProt P20263, residues 131-289)
Sequence of UniProt P20263 (131-289, looked up): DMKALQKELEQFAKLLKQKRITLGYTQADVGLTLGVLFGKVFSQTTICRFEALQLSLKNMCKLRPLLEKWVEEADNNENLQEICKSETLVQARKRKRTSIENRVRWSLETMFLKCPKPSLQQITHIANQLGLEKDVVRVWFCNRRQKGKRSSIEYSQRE
Method: Spec-seq
Form: double-stranded DNA, one strand shown
Medium: in vitro
Concentration: not given
Notes: whole probe, mean of replicates
Reference: not given
Direction: lower = stronger binding
Quantity: relative binding energy
Shared flanks, not repeated: GAGTCGTCTCGTCAGCAC … CCGTAGAGCACTCAGGTC
CTAATAAT: 0.151 ln ratio
AGCATAAT: -0.533 ln ratio
ATGCAGGA: 0.129 ln ratio
ATGCGACG: 0.315 ln ratio
ATGCGGGC: 0.553 ln ratio
CACATAAT: 0.118 ln ratio
ATGAACAT: 0.37 ln ratio
ATGCTCAT: 0.449 ln ratio
ATTTACAT: -2.71 ln ratio
CGAGTAAT: 0.911 ln ratio
ATCTTGAT: 0.628 ln ratio
ACCATAAT: 0.34 ln ratio
ATGCCAGT: 0.762 ln ratio
CAAGTAAT: 0.823 ln ratio
GTCTTAAT: 0.666 ln ratio
AGTATAAT: 0.36 ln ratio
ATTCACAT: -0.0531 ln ratio
ATGCGCGT: 0.407 ln ratio

Set 2
Target: CCNB3, cyclin fold, Cln2 fusion (human)
Method: yeast growth competition, sequencing
Medium: yeast
Notes: strong parent motif
Reference: not given
Direction: higher = stronger binding
Quantity: normalised enrichment score
Parent: BRCA2 docking peptide (human); PSIKRNLLNEFDR; partner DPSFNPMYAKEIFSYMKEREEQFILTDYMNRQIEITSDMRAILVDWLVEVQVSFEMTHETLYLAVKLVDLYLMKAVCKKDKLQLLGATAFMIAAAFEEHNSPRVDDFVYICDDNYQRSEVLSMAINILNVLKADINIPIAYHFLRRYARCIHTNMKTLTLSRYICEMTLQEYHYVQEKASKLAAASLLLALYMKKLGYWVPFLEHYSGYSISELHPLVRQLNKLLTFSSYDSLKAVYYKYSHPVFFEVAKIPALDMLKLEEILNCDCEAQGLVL
E10R: 0.0629
N9Q: 1.53
N9E: 1.38
I3V: 1.18
L8M: 2.04
P1Q: 1.36
K4Y: 0.355
D12G: 0.661
D12C: 0.798
L7E: 0.293
S2C: 0.952
R13N: 1.02
D12Q: 0.988
N6C: 0.0132
I3C: 1.77
R13Y: 1.46
R5K: 0.295
R13I: 1.27
L8S: 0.724
S2D: 0.8
P1K: 1.39
K4L: 0.267
I3H: 0.348
L8R: -0.486
K4E: 0.226

Set 3
Target: RNA binding protein fox-1 homolog 2, RRM domain, GST-SBP tag (RBFOX2, Homo sapiens, UniProt O43251-10, residues 100-194)
Method: RNA Bind-n-Seq
Form: RNA
Medium: in vitro
Concentration: 365 nM
Notes: natural RNA segment, single round, ends assumed
Reference: no-protein control
Direction: higher = stronger binding
Quantity: RBNS enrichment (R)
Shared flanks, not repeated: GGGAGUUCUACAGUCCGACGAUC … UGGAAUUCUCGGGUGCCAA
Target sequence (chain): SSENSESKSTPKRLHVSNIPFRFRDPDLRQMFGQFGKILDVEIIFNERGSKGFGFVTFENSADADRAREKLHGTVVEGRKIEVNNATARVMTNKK
UAGGCAAACAGGGGAAAGCUUAGAGGUCCUUCUAUAUGUGUUAAUAAGCUGUUUCUAAGUGUUUAAAUUUGAAAAGCAUCAUGUUCUCAUGAUUUAUGGGAAUGAAGCAA: 0.717
UCCCUUUCUUUGACUGACAGAGCACCAUCCAGGCAAAAUUAGAGCGCCAAAUGGUUUUCUUCUCAAUCUUAAAGCAGUAUACCUUUCCACAGGCUCGUCUGUGUCCCUGC: 0.301
CUCUGCUUUACCUUCUUAAGCCACCUAAUUGUUGGCCCCACUACGGGUAGCCAGAGGCUUUGAGCCUCAUUUCCUUGCUCUGACUUCAAUAAAGACUUUUCAAUCAAACC: 0.271
AAAUGUCAGCAUAUGUAGCAAGUUUUCUAAGAAUGUAACUUAAUUUGAAGCUCCUGAAAUUUUGAGCACUGCUCUAACAUUGUAGGAAGUUAGUGACAUUUUGCAAGUCU: 0.482
GGACUCUAUUGUUCCCUCUUGUAUAGGCACUUUACAUUUCUUGUCACUACAGCAACCACAUACAGUACAGACAACCUCCAAACCUGUUUAUAUUAGUGUAAAUAGAAAAU: 0.414
CACUUCCUCCUUUAAAAUGUCCUAUGCUUCCAGAGUCGGAACCUGAGUUAUAUGUGGUAGAUUAUAUUGACUCCAACCAUCAGCCUUUCUGAUGAGCCUGUAGAGAAGCC: 0.808
AUGACCUUUAUCAUCAACUCUGAUUCGAUCCAUGCGUUUUUUUUAUACUAAGCAAUAACUUUACGAUCAACAGAAGAAAUUUUAAAACAGAGUCUCCUUUUCCCAUCCUU: 0.436
GGCAGUGCCUACUUUGGAAGAUGCUGCAGCCUGCGAGGGGAUCUGCUGGGGCUUCCCCUUCGCCACACAGAAGCCUGCUUAGUGCUUUCUGCACCAGACAACCUGUUGAG: 0.746
CAGGGUUGGAGUGGGGGUUGGUCCCUCAGGGGCUCAAGUUCCUUCUCUCAGCUGGGACAGGAGGUGGCUGCUCAGUCCUAGAGUAGCUCUAUGGGUGAAACCGGCUCUAG: 0.239
CUGAUUUUCACUCUGAUUUUUAACGUUUCUUUAAAUAUUUAUAAUGUAGCUUCUUUCAAAAUAUUUUCAUGAAAAAUUACUUUUAUUAUACCAUUAUGUGCAUGUUAUUG: 14.4
GAGGCCCUGCAGAGCCCACCUGUGGGGAAAGAGAAGGGGCAGCUUCCGGAUUUUCUUUUGGGGGUUAGAAGGUCAGGUGUGGAGACUGCUCGCCAGUCUCUGUGAGCCUA: 0.442
GCUGGAGGAAAUAGGCUUGUUUCCAGAGUUGUCCUUAUACAAAAUGUAUAAAAAGCAGUUUCUGGUGUGACUUGUGCUCUGCCUCCACCCCUUGACAUCCCAAAAUAUCC: 0.324

Set 4
Target: Histone acetyltransferase KAT6A, winged helix 1, GST fusion (KAT6A, Homo sapiens, UniProt Q92794, residues 1-85)
Method: protein binding microarray
Form: double-stranded DNA, one strand shown
Medium: in vitro
Concentration: not given
Notes: 8-mer, flanks averaged, mean of 2 arrays, mostly near background
Reference: not given
Direction: higher = stronger binding
Quantity: E-score
Residues (chain): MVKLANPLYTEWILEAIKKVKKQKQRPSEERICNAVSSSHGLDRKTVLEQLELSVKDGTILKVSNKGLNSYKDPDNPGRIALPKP
ATCGGCGA: 0.253
CGAAGCGA: 0.0332
GGAGTCCC: -0.0224
ATCACATG: 0.0624
GAAGACAC: 0.0467
AGGTCGAT: -0.0232
AGACACTA: -0.14
TTATAAAA: 0.0397
GCCTCTCA: -0.236
CTTGTTTC: -0.278
GTGTCAGA: -0.141
ACTGGAGG: -0.0285
GAAAAAAA: -0.122
GGACTGAC: 0.0345
ATCACTAA: -0.0486
AAAGGGTC: 0.0186

Set 5
Target: Sal-like protein 4, full length isoform A (SALL4, Homo sapiens, UniProt Q9UJQ4, residues 1-1053)
Sequence of UniProt Q9UJQ4 (whole entry, looked up): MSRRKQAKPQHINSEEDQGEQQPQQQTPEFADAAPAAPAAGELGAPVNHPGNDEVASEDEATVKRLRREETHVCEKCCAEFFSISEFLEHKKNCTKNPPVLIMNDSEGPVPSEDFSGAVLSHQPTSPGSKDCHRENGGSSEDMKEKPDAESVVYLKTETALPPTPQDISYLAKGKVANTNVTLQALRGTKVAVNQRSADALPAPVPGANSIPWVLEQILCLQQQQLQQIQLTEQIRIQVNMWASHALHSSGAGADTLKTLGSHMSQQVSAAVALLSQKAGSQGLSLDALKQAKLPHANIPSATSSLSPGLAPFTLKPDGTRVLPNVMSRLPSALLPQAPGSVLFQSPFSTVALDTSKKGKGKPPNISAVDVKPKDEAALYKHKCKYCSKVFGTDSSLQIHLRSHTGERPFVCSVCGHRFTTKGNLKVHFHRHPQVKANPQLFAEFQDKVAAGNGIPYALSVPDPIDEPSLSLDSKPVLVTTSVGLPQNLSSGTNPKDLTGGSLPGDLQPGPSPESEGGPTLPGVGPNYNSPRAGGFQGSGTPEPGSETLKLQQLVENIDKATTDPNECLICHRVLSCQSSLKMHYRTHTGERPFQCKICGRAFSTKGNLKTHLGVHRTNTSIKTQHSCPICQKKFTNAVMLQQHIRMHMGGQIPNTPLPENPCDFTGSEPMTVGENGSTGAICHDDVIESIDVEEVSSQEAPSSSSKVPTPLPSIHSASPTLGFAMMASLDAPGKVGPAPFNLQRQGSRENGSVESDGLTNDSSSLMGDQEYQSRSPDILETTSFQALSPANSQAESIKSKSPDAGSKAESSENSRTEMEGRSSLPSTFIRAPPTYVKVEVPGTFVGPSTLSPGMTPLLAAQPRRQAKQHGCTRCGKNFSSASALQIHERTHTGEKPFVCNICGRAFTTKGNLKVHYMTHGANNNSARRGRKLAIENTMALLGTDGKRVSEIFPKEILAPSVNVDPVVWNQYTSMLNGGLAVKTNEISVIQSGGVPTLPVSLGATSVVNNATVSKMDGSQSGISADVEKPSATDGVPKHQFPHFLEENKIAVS
Method: universal PBM
Form: double-stranded DNA, one strand shown
Medium: in vitro
Concentration: 600 nM
Notes: 8-mer, flanks averaged, mean of replicates
Direction: higher = stronger binding
Quantity: E-score
CCCTCGTC: -0.241
CTGACCAA: -0.0469
ATAGCCGC: -0.145
CAACTGCC: -0.057
AAAACTGA: 0.083
AAGGGAAG: 0.161
CTAAAATA: 0.324
GCAGTCAC: -0.124
GATGGATA: 0.112
ACCGCGAA: -0.254
AGTGCGCA: -0.134
ATGATAAA: 0.365
GGGCACAC: -0.294
CTTAGGCA: -0.129
ATAGGATG: 0.158
GATCCTCC: -0.221
GTCTCTTA: 0.0531
CATTCGAA: 0.114
AAGGACAC: -0.0297
CCCATAGC: -0.0991
GTTCGTAA: 0.186
GAGAAATC: 0.0818
GAGAGACC: -0.263
CTGGATCC: -0.165
CGGTACCC: -0.212

Repeated from above (set 1):
ATGCTCAT: 0.449 ln ratio
ATTTACAT: -2.71 ln ratio
CGAGTAAT: 0.911 ln ratio
ATCTTGAT: 0.628 ln ratio
ACCATAAT: 0.34 ln ratio
ATGCCAGT: 0.762 ln ratio
